Assay results from different studies.
Compare with care: the assays were run in different laboratories. Several values in a cell are separate wells, animals, samples, runs or records. Numbers after ± are the reported error.
plsY: Glycerol-3-phosphate acyltransferase (plsY, Streptococcus pneumoniae, UniProt P0A4Q0)
Trypanothione synthetase: Trypanothione synthetase (Trypanosoma brucei brucei, UniProt Q586P2)
Sequence of UniProt O95180 (whole entry, looked up): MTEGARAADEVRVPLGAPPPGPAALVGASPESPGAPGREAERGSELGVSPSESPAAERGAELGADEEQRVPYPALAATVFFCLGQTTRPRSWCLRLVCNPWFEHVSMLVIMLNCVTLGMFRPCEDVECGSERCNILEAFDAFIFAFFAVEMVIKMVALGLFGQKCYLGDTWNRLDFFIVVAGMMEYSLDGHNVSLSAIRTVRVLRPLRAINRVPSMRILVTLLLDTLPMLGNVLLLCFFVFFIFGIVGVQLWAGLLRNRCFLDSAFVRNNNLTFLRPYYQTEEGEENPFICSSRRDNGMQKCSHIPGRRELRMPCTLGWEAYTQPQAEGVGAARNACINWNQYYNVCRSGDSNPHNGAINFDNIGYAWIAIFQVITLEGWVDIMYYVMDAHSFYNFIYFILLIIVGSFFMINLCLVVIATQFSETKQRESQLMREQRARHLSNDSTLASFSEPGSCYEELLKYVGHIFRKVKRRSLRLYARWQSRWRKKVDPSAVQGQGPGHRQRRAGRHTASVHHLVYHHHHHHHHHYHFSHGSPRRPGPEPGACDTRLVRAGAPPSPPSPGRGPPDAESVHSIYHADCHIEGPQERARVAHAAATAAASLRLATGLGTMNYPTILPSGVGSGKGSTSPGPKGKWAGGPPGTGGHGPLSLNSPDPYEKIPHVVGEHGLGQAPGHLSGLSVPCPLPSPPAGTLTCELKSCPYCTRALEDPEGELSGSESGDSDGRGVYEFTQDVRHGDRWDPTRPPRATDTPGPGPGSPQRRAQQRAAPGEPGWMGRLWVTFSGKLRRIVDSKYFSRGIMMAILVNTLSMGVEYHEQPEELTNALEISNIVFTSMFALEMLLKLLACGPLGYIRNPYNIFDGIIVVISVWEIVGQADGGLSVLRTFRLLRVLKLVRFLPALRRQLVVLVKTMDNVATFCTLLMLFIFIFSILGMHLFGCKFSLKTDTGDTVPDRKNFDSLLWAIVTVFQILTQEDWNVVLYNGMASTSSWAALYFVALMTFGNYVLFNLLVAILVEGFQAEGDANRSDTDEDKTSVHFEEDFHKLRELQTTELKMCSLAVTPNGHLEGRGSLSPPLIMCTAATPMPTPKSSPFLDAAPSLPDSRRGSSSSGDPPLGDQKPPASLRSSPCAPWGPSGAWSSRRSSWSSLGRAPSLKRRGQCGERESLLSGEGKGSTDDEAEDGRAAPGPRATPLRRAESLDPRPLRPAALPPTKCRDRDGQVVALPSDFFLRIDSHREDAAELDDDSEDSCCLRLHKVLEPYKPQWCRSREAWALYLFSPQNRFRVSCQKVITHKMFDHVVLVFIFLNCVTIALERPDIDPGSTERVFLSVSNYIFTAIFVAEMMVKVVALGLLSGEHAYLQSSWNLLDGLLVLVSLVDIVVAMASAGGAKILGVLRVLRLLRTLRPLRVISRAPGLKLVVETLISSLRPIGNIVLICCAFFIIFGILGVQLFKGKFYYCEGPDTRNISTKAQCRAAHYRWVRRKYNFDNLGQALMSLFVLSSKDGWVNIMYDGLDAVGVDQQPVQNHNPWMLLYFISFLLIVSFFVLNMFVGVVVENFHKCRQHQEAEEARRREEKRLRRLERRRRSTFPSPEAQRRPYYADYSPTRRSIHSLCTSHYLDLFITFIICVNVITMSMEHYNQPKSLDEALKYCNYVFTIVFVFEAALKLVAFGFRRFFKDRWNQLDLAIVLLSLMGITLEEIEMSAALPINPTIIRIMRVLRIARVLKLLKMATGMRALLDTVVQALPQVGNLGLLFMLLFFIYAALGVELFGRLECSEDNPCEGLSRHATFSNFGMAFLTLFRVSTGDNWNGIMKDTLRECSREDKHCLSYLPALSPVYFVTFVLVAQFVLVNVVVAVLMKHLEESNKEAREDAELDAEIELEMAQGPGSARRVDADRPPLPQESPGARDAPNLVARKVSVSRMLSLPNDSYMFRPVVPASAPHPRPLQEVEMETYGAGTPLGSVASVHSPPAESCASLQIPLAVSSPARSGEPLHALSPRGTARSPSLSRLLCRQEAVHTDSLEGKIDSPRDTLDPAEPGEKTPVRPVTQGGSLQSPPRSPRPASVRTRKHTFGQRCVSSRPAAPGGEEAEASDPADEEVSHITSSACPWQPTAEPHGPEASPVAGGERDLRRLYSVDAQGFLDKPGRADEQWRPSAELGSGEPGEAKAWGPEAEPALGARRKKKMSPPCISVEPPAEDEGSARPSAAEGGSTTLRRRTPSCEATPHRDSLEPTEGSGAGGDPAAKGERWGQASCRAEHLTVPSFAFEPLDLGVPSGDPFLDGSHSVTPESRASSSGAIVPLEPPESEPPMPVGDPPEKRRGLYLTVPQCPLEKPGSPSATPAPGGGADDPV
Sequence of UniProt Q9Y5S2 (whole entry, looked up): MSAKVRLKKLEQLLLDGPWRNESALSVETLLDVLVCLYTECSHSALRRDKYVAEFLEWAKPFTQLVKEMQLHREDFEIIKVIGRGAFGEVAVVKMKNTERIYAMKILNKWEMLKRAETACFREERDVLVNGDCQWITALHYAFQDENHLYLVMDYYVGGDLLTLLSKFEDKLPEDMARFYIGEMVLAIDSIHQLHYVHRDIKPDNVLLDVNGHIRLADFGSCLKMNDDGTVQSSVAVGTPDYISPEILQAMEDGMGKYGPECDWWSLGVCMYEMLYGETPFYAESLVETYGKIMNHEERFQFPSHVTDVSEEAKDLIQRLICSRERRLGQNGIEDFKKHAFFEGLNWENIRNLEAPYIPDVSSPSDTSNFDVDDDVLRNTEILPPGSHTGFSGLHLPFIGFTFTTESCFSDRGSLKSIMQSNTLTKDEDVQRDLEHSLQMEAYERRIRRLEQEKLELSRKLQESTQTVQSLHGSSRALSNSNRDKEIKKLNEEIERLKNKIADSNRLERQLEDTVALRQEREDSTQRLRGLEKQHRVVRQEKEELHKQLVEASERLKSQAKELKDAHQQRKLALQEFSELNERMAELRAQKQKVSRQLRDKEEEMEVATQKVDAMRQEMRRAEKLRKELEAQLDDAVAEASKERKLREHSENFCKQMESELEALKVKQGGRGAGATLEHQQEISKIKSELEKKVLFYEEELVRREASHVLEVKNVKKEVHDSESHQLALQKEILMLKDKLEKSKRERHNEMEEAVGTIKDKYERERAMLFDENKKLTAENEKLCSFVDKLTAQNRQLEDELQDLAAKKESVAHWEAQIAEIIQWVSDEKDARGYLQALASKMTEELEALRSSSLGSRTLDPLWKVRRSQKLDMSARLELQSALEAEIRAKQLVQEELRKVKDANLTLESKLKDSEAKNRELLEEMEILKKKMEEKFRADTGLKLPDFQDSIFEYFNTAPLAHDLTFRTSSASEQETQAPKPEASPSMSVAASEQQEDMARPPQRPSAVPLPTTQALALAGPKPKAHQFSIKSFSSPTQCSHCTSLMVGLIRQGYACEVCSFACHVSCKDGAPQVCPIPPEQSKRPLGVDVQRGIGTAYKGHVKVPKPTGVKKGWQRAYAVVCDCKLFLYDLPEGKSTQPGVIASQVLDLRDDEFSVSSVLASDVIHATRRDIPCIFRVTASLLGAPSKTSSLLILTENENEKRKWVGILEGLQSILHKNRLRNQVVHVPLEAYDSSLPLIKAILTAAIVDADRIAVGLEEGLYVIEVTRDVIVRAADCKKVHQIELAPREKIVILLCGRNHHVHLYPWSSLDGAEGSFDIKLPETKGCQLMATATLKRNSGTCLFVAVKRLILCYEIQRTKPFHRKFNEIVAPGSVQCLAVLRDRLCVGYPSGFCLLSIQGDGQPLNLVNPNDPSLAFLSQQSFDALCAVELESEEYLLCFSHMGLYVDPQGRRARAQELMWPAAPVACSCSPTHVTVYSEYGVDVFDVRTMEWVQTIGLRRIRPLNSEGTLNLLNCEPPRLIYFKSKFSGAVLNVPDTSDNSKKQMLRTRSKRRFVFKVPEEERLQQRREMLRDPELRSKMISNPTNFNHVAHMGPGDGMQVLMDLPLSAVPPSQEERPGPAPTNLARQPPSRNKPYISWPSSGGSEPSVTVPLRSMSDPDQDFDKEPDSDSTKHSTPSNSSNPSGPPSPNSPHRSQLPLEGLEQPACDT
Sequence of UniProt P23439 (whole entry, looked up): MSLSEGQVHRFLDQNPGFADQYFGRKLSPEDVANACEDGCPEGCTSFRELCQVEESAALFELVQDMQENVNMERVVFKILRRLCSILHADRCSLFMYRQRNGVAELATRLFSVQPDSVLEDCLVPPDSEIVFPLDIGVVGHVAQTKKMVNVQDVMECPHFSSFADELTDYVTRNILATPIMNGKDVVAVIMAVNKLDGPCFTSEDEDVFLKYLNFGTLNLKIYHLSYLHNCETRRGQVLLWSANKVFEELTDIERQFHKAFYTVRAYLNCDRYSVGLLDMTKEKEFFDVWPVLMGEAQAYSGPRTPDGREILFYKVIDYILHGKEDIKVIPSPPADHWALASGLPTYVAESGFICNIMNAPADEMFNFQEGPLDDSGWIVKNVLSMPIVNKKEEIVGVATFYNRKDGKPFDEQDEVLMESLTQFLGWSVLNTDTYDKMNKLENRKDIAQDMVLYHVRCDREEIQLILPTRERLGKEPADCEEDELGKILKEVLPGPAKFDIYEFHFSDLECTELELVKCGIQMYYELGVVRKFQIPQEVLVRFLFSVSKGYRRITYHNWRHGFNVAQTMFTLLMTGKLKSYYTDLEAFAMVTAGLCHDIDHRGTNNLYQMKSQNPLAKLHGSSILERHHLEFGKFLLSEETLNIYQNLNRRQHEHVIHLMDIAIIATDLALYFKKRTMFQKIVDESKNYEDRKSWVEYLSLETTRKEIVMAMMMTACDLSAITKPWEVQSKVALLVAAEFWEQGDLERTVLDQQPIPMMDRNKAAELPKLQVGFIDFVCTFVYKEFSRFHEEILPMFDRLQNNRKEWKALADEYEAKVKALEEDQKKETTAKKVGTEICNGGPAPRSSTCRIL

`Cc1ncc(C)n2nc(/C=C/c3nc(N4CCCC4)cc(N4CCOCC4)n3)nc12` has an inhibition of -33% (sigma receptor non-selective; radioligand binding; 10 µM).
`O=C(CCCCC1CCCCC1)CP(=O)(O)O` gave an inhibition of 9% (plsY; inhibitor; 200 µM).
`CCN1CCN(Cc2ccc(CNC(=O)Cc3c[nH]c4ccccc34)cc2)CC1` has an inhibition of 29 ± 5.1% (Trypanothione synthetase; enzyme activity, BIOMOL Green phosphate release; 25 µM).
The inhibition of `CN1CCN(c2nc(N)c3ccccc3n2)CC1` is reported as 4.1% (glycine receptor (rat); binding, radioligand binding; 0.1 µM).
`COc1cc(Nc2ncc(F)c(Nc3ccc4c(n3)NC(=O)C(C)(C)O4)n2)cc(OC)c1OC` has an inhibition of 0% (CDC42BPB (Homo sapiens, UniProt Q9Y5S2); KINOMEscan; 10 µM, MRCKB).
`C=CC[C@]1(O)CC[C@H]2[C@@H]3CCC4=CC(=O)CCC4=C3C=C[C@@]21C` gave an inhibition of 66.8% (Palmitoyl-protein thioesterase 1 (Homo sapiens, UniProt P50897); Spectrum Collection screen; concentration not given, together with: substrate 20 µM).
With `COc1cc2c(NC3CCN(C)CC3)cc(-c3ccc(C)o3)nc2cc1OCCCN1CCCC1` the inhibition was 82.2% (DNMT1 (Homo sapiens, UniProt P26358); enzyme activity; 11110 nM).
`COCc1c(-c2cc3cc(C)cc(OC)c3s2)c2c(N)ncnn2c1CN1CCNC(=O)C1` gave an inhibition of -4% (NMDA receptor glycine site; radioligand binding; 10 µM).
`CN(CCN1CCC(OC(=O)Nc2ccccc2-c2ccccc2)CC1)C(=O)c1ccc(CN2CCC(C(N)=O)CC2)cc1` gave an inhibition of 12% (rat opioid receptor non-selective; radioligand binding; 1 µM, together with: [3H]naloxone 1.0 nM).
`CSc1ccc(/C=C2/C(C)=C(CC(=O)O)c3cc(F)ccc32)cc1` has an inhibition of 68 to 70% (PTGS1 (Ovis aries, UniProt P05979); enzyme activity, inhibitor, fluorescence; 10 µM).
The inhibition of `Cc1[nH]c2ccccc2c1CC(=O)NCc1ccc(COCC(F)(F)F)cc1` is reported as 27.5 ± 9.5% (Trypanothione synthetase; enzyme activity, BIOMOL Green phosphate release; 25 µM).
`C=CCCCCCCCCC(=O)C(F)(F)P(=O)(O)O` has an inhibition of 14% (plsY; inhibitor; 200 µM).
For `O=C(Nc1cccnn1)N1CCC(=Cc2cccc(Oc3ccc(C(F)(F)F)cn3)c2)CC1`, the inhibition was 0% (AVPR1B (Homo sapiens, UniProt P47901); binding; 10 µM, together with: [3H][Arg8]vasopressin).
The inhibition of `CS(=O)(=O)c1ccc(OP(=O)(Oc2ccc(S(C)(=O)=O)cc2)C(NC(=O)OCc2ccccc2)c2c[nH]c3ccccc23)cc1` (racemic) is reported as 62.8 ± 0.2% (Structural polyprotein, capsid protease (O'nyong-nyong virus, UniProt P22056); protease activity, irreversible covalent inhibitor; 100 µM, 30 °C, CP Δ2 construct, 1% DMSO, together with: H-Gly-Glu-Ser-Glu-Val-Trp-ACC, 50 µM).
`FC(F)(F)c1cccc(Nc2nc(NCCOc3ccccc3)nc3[nH]cnc23)c1` gave an inhibition of 6% (Cyclin-dependent kinase 2, with cyclin A (CDK2, Homo sapiens, UniProt P24941); Z'-LYTE or Adapta; 5 µM).
`CCCCCCCC(=O)CP(=O)(O)O` gave an inhibition of 0% (plsY; inhibitor; 200 µM).
For `Cc1ccc2c(CC(=O)N3CCC(C(N)=O)C3)coc2c1C` (centres unmarked), the inhibition was 37.1 ± 13.9% (Trypanothione synthetase; enzyme activity, BIOMOL Green phosphate release; 25 µM).
The inhibition of `COc1ccc(N2C(=O)N(c3c(C)cccc3Cl)Cc3cnc(Nc4ccc(C5CCN(C)CC5)cc4OC)nc32)nc1` is reported as -0.05% (NTRK2 (Homo sapiens, UniProt Q16620); kinase activity, inhibitor; 0.5 µM, kinase TRKB).
With `O=c1ccc2ccccc2o1` the inhibition was 2.24% (voltage-gated potassium channel; radioligand binding, antagonist; 10 µM).
For `CN1CCC(c2cc(-c3ccncc3)c(-c3ccc(F)cc3)[nH]2)CC1`, the inhibition was 104 ± 2% (cGMP-dependent protein kinase (PKG, Plasmodium falciparum, UniProt Q8I719); 10 µM).
The inhibition of `C[C@H]1N=C(c2ccccc2F)c2cc(Br)ccc2-n2cnc(C(=O)O)c21` is reported as -15.5 ± 10.7% (sigma receptor 2; binding; 10 µM).
`O=C(Nc1ccncc1)C1CCN(C(=O)Cc2c[nH]c3ccccc23)CC1` gave an inhibition of 12.7 ± 9.8% (Trypanothione synthetase; enzyme activity, BIOMOL Green phosphate release; 25 µM).
For `O=C(N1CCC2(CC1)C[C@@H](CN1CCCCS1(=O)=O)CCO2)C1(c2ccccc2)CCCC1`, the inhibition was 10% (DHX58 (Homo sapiens, UniProt Q96C10); ATPase activity, inhibitor; 50 µM).
The inhibition of `CN(C(=O)n1cnc(-c2ccc[n+]([O-])c2)c1)C1CCCCC1` is reported as 3% and -3% (somatostatin sst4 receptor; concentration not given).
The inhibition of `C[C@H](C(=O)N[C@H]1COc2ccccc2[C@@H]1S(C)(=O)=O)c1ccc(F)cc1` is reported as -6% (PDE6A/PDE6B (Bos taurus, UniProt P11541+P23439); enzyme activity; 10 µM, Eurofins selectivity panel).
`CCCCCn1c2ccccc2c2cc(C(=O)NCC3CCN(CC(=O)NC(C)(C)C)CC3)ccc21` has an inhibition of 69.3 ± 4% (CACNA1H (Homo sapiens, UniProt O95180); calcium current, whole-cell patch clamp; tsA201 (hCav3.2 transfected); 3 µM).
With `CN1CCN(c2cc(-c3ccncc3)c(-c3ccc4ccccc4c3)nn2)CC1` the inhibition was 9.3% (CX3CR1 (Homo sapiens, UniProt P49238); antagonist, FLIPR; 10 µM).
With `CCCCCCCCCCCC(=O)NP(=O)(O)O` the inhibition was 30% (plsY; inhibitor; 200 µM).
For `Cn1cccc1-c1cccnc1`, the inhibition was 17.9% (ADRB1 (Homo sapiens, UniProt P08588); binding; 50 µM).
With `CCCCCCCC(=O)NP(=O)(O)O` the inhibition was 0% (plsY; inhibitor; 200 µM).
For `O=C(Nc1cnccc1Cl)N1CCN(Cc2ccc3c(c2)OC(F)(F)O3)CC1`, the inhibition was 4.7% (Monoacylglycerol lipase ABHD6 (Abhd6, Rattus norvegicus, UniProt Q5XI64); probe labelling, inhibitor, competitive ABPP with azido-FP probe, item: ABHD6; rat brain soluble fraction; 1 µM).
With `O=C(O)c1nccnc1NC(=O)c1cccc2ccccc12` the inhibition was 81.8% (panD (Mycobacteroides abscessus, UniProt B1MGV7, Y127A); 200 µM).

Excerpt of the above:
The inhibition of `C[C@H]1N=C(c2ccccc2F)c2cc(Br)ccc2-n2cnc(C(=O)O)c21` is reported as -15.5 ± 10.7% (sigma receptor 2; binding; 10 µM).
The inhibition of `C[C@H](C(=O)N[C@H]1COc2ccccc2[C@@H]1S(C)(=O)=O)c1ccc(F)cc1` is reported as -6% (PDE6A/PDE6B (Bos taurus, UniProt P11541+P23439); enzyme activity; 10 µM, Eurofins selectivity panel).
With `COc1cc2c(NC3CCN(C)CC3)cc(-c3ccc(C)o3)nc2cc1OCCCN1CCCC1` the inhibition was 82.2% (DNMT1 (Homo sapiens, UniProt P26358); enzyme activity; 11110 nM).
With `CCCCCCCCCCCC(=O)NP(=O)(O)O` the inhibition was 30% (plsY; inhibitor; 200 µM).
